Measured values pooled from the literature.
Each line is one published result; not all experiments were run side by side. ± marks the error that the study gave.

[Cl-].[Cl-].[Pt+2].[Ru+2].c1ccc(-c2nc3ccccc3nc2-c2ccccn2)nc1.c1cnc2c(c1)ccc1cccnc12.c1cnc2c(c1)ccc1cccnc12
survival rate (Danio rerio; embryos; 45 µM, 24 h): 83.3 ± 1.7%

Fc1ccc(C2=CCNCC2)cc1
survival (Salmonella typhimurium; SOS/umu test; TA1535/pSK1002; 0.016 mg/mL, 4 h, with S9, full range): 101%

CC(=O)N1CCC(C(=O)N2CCN3C(=O)c4cc(-c5ccccc5)ccc4NC(=O)C3C2)CC1 (stereo not shown)
fold increase in revertants (Salmonella typhimurium; TA1537; 5000 µg/plate; baseline: vehicle): 1.8

CNC(=O)c1c(N(C)N=O)ncn1C
revertant colonies per plate (Salmonella typhimurium; plate incorporation; TA98, water; 150 µg/plate, without S9): 33 ± 9

COc1cccc(-c2n[nH]c(SCc3ccccn3)n2)c1OC
revertant colonies per plate (Escherichia coli; Ames test, preincubation; WP2 uvrA; 0.50 mg/plate, with rat liver S9): 22

O=[N+]([O-])c1ccc(N2CCC(NCCC(O)c3ccc(F)c4ccccc34)CC2)c(C(F)(F)F)c1 (stereo not shown)
survival (Salmonella typhimurium; SOS/umu test; TA1535/pSK1002; 0.016 mg/mL, 4 h, with S9, full range): 74.8%

[Cl-].[Cl-].[Pt+2].[Ru+2].c1ccc(-c2nc3cc4ccccc4cc3nc2-c2ccccn2)nc1.c1cnc2c(c1)ccc1cccnc12.c1cnc2c(c1)ccc1cccnc12
hatching rate (Danio rerio; embryos; 30 µM, 48 h): 36.7 ± 5.8%

O=[N+]([O-])c1ccc(N2CCN(CCC(O)c3ccc(F)cc3)CC2)c(C(F)(F)F)c1 (stereo not shown)
umu induction factor (Salmonella typhimurium; SOS response, SOS/umu test; TA1535/pSK1002; 0.001 mg/mL, 4 h, without S9 activation): 1.1

Cc1cc(C(=O)NC(C)(C)COc2cccc3c2C(N)=NS(=O)(=O)N3)cc(C)n1
revertant ratio (Salmonella typhimurium; Ames test, initial; TA98; 150 µg/plate; baseline: solvent control): 1.3

[Cl-].[Cl-].[Pt+2].[Ru+2].c1ccc(-c2nccnc2-c2ccccn2)nc1.c1cnc2c(c1)ccc1cccnc12.c1cnc2c(c1)ccc1cccnc12
survival rate (Danio rerio; embryos; 75 µM, 12 h): 63.3 ± 3.3%

A few entries again:
O=[N+]([O-])c1ccc(N2CCN(CCC(O)c3ccc(F)cc3)CC2)c(C(F)(F)F)c1 (stereo not shown)
umu induction factor (Salmonella typhimurium; SOS response, SOS/umu test; TA1535/pSK1002; 0.001 mg/mL, 4 h, without S9 activation): 1.1
